Measurements of several laboratories.
Lines come from different studies, so protocols differ.
Route: intravenous

COCCN(C)CC(=O)NC(Cc1ccc(-c2ccccc2)cc1)B(O)O (stereo not drawn)  clearance (rat, plasma; 1 mg/kg): 13.7 mL/min/kg
Cc1[nH]nc2c1N=C(c1ccccc1Cl)c1cnc(N3CCOCC3)cc1N2  clearance (male Sprague-Dawley rat, plasma; 1 mg/kg): 16.5 mL/min/kg
Cc1cccc(Cn2ncc3c4cc(F)c(CN(C)C)cc4n(C)c3c2=O)n1  clearance (Sprague-Dawley rat, plasma; 5 mg/kg): 43.1 mL/min/kg
CCC1(CC)CC(=O)N(C2CCOc3ccc(C(=O)NC4CC(C)(C)Oc5ccccc54)cc32)C(=N)N1 (stereo not drawn)  clearance (male Wistar rat, plasma): 45.7 mL/min/kg
C/C(N)=N/C(=N\S(=O)(=O)c1ccc(C(F)(F)F)cc1)N1C[C@H](c2ccccc2)C(c2ccc(Cl)cc2)=N1  clearance (male Sprague-Dawley rat, plasma; 3 mg/kg): 9.1 mL/min/kg
CCC(CC)n1c(Cc2cccs2)nc2cc(C(=O)N[C@@H](CC(=O)O)c3ccccc3)ccc21  clearance (male Sprague-Dawley rat, plasma; 1 mg/kg): 30.3 mL/min/kg
N#Cc1ccnc(N2C(=O)CC[C@H]2C(=O)N(c2cncc(F)c2)[C@H](C(=O)NC2CC(F)(F)C2)c2ccccc2Cl)c1  clearance (Sprague-Dawley rat, plasma; 1 mg/kg): 3.33 mL/min/kg
C[C@@H](CO)NC(=O)c1cc(-c2ccc(Cl)cc2)nn(-c2cnn(C)c2)c1=O  clearance (male Wistar rat, blood): 3 mL/min/kg
C=C(NC(=O)c1csc(-c2nc3c(cc2O)-c2nc(cs2)C(=O)NC(C(C)O)C(=O)NC(=C(C)OC)c2nc(cs2)C(=O)NC2c4nc(cs4)C(=O)NC(COC(=O)c4c5c6c(cccc6n4O)COC(=O)C(OC4CC(C)(O)C(N(C)C)C(C)O4)C2OC5)c2nc-3cs2)n1)C(N)=O (stereo not drawn)  clearance (Sprague-Dawley rat, plasma; infusion): 48 mL/min/kg
CCOP(=O)(CC(=O)Nc1ccc(S(=O)(=O)N(CC(N)=O)c2ccc(N(CC(N)=O)S(=O)(=O)c3ccc(OC)cc3)c3ccccc23)cc1)OCC  clearance (male Wistar rat, plasma; 28 mg/kg, single dose): 38.6 mL/min/kg
Cc1cc2c(cc1O)C=C1C=CC(=O)C(C)(C)[C@H]1CC2  clearance (male Sprague-Dawley rat, plasma; 2 mg/kg): 53.3 mL/min/kg
OCC1OC(n2cnc3c(NCc4ccc(Br)s4)ncnc32)C(O)C1O (stereo not drawn)  clearance (male Sprague-Dawley rat, blood; 6 mg/kg): 9 mL/min

A few entries again:
C[C@@H](CO)NC(=O)c1cc(-c2ccc(Cl)cc2)nn(-c2cnn(C)c2)c1=O  clearance (male Wistar rat, blood): 3 mL/min/kg
N#Cc1ccnc(N2C(=O)CC[C@H]2C(=O)N(c2cncc(F)c2)[C@H](C(=O)NC2CC(F)(F)C2)c2ccccc2Cl)c1  clearance (Sprague-Dawley rat, plasma; 1 mg/kg): 3.33 mL/min/kg
